{"data": "Experimental data from different studies", "note": "Parts stem from different laboratories: compare values within a part only. Values joined by “and” are separate records of one study, mostly repeats; a detail may differ.", "sequence of UniProt Q9NWZ3 (whole entry, looked up)": "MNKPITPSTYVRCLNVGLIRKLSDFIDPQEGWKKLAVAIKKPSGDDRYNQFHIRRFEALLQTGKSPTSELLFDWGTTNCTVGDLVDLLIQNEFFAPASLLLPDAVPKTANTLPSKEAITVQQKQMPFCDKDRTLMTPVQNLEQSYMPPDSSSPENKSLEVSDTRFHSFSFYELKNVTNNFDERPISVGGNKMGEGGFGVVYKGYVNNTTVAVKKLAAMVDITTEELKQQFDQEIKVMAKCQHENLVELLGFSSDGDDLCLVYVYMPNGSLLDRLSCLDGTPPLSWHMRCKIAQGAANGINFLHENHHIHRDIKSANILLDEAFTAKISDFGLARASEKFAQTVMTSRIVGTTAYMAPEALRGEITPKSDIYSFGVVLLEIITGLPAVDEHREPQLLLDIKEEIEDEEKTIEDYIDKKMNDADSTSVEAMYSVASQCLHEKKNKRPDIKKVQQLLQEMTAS", "sequence of UniProt P42336 (whole entry, unmodified, looked up)": "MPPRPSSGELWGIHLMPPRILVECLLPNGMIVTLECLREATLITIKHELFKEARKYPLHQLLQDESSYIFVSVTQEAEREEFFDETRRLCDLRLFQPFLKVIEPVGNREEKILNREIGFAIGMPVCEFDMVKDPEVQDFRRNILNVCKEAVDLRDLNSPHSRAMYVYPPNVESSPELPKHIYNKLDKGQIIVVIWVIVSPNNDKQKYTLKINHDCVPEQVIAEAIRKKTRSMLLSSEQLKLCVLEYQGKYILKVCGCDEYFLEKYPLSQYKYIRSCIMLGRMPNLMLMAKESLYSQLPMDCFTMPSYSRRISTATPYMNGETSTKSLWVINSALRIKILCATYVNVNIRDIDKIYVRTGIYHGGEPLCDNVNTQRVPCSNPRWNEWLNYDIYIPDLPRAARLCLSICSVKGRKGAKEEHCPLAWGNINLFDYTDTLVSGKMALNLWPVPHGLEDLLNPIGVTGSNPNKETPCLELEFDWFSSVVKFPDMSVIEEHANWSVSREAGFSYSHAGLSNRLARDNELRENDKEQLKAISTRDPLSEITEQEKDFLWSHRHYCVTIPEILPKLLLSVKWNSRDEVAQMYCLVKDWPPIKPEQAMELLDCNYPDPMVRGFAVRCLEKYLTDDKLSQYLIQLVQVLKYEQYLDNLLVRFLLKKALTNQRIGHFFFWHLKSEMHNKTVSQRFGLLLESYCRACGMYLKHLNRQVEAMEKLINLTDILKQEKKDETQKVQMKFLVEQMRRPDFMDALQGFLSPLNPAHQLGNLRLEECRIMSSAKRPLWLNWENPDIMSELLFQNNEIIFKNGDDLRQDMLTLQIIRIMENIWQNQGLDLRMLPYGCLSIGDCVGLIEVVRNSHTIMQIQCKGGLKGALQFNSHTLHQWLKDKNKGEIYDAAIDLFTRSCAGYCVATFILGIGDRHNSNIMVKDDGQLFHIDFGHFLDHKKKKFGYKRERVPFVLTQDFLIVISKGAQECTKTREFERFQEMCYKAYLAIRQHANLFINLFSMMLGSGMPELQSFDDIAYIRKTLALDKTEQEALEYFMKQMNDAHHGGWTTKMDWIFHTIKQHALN", "sequence of UniProt P10721 (whole entry, looked up)": "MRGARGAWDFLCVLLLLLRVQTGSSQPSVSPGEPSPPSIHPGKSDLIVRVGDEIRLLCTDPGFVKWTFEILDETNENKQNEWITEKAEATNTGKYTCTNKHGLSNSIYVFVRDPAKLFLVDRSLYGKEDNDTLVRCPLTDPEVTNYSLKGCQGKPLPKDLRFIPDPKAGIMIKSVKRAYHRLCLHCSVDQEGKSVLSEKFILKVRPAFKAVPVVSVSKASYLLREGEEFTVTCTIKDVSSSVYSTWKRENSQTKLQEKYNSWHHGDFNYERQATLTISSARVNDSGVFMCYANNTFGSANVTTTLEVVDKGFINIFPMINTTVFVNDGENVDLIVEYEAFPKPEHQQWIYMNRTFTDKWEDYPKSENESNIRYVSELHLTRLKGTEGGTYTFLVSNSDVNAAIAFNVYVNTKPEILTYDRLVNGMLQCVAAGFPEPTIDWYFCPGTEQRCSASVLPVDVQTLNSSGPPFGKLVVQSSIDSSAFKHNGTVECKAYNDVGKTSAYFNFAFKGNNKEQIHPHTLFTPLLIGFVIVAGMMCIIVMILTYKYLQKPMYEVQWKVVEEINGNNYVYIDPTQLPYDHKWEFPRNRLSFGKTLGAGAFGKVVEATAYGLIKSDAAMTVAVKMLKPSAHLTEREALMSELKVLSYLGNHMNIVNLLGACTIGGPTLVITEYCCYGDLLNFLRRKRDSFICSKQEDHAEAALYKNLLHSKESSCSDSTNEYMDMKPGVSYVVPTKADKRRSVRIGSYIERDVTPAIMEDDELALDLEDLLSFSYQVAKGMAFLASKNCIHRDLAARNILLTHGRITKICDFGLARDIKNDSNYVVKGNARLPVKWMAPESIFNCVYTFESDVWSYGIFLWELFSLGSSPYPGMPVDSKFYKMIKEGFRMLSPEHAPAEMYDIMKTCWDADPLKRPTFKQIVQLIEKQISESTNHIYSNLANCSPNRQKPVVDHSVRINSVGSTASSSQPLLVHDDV", "sequence of UniProt P53778 (whole entry, looked up)": "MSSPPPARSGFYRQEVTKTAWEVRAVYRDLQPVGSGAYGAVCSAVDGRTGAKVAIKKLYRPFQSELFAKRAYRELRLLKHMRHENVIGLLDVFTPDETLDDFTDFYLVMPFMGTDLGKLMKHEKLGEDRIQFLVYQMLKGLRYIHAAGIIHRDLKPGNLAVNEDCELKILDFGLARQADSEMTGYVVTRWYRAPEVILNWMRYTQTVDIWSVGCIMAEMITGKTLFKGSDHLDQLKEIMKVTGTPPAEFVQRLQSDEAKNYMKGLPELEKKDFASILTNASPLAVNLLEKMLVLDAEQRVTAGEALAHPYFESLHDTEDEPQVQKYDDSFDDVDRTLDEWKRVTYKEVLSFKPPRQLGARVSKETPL", "sequence of UniProt Q9NYY3 (whole entry, looked up)": "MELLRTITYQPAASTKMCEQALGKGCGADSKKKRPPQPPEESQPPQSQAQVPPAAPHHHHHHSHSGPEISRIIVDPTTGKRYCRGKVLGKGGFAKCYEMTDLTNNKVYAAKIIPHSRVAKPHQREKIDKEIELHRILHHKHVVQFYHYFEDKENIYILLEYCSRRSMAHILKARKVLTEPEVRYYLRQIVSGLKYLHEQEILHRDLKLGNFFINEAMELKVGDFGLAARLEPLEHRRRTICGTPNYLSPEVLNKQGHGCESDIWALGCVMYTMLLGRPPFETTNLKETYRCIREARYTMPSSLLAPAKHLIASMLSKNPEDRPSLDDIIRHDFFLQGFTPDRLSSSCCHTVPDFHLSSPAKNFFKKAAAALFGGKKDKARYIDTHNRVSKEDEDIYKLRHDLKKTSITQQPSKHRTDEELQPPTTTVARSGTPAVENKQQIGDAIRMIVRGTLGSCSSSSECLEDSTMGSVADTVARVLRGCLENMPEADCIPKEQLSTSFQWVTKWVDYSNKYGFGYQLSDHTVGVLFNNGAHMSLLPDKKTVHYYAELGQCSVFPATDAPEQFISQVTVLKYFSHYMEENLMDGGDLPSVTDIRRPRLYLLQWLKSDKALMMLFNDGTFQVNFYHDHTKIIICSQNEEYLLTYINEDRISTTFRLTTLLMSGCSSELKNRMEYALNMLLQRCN", "sequence of UniProt Q13976 (whole entry, looked up)": "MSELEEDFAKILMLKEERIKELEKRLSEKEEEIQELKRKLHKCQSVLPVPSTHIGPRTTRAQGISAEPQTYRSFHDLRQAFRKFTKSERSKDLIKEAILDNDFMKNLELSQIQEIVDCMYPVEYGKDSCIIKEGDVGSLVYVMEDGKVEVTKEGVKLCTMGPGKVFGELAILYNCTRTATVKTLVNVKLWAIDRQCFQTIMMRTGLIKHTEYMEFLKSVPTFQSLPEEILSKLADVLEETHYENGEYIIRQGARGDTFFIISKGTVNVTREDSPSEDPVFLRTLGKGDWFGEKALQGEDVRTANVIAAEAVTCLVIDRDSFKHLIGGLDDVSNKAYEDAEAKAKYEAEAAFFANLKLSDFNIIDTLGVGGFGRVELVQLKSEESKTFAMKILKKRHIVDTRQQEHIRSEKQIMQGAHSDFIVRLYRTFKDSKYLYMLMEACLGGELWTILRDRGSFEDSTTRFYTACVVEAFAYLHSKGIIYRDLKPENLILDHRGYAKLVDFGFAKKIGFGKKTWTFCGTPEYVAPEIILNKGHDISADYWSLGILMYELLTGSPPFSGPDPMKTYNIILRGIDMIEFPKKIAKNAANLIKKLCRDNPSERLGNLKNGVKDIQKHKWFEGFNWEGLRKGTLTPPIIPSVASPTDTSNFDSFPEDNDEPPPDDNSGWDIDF", "sequence of UniProt Q9P289 (whole entry, looked up)": "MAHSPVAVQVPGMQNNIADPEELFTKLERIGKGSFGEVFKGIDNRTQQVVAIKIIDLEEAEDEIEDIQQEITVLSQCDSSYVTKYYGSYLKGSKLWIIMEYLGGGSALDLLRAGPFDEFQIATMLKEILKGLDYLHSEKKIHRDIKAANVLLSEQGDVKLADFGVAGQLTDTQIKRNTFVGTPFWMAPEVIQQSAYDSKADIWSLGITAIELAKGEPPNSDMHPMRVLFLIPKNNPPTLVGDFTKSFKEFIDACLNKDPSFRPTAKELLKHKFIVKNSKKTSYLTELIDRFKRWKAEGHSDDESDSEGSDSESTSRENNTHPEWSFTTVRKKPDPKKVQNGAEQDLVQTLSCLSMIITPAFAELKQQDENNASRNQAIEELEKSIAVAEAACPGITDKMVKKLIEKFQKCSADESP", "sequence of UniProt O15264 (whole entry, looked up)": "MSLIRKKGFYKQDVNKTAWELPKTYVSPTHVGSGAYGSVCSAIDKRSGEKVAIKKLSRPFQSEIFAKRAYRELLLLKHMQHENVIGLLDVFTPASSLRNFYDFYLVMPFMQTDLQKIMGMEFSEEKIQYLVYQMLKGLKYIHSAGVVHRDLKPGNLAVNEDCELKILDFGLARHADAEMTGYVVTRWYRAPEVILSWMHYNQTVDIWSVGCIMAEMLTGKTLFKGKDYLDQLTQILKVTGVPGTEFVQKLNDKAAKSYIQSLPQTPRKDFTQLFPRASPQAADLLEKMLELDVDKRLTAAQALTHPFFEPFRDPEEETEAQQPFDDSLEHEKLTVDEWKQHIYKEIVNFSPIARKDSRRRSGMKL"}
{"data": "Block 1", "SMILES": "CC(=O)O/N=C1/C(c2c(O)[nH]c3cc(Br)ccc23)=Nc2ccccc21", "effect on": "enzyme activity", "mode": "inhibitor", "concentration": "0.5 µM", "reference": "control"}
{"target": "MAPK13 (Homo sapiens, UniProt O15264)", "remaining activity [%]": 91.5}
{"target": "KIT (Homo sapiens, UniProt P10721)", "remaining activity [%]": 62.3}
{"target": "EPHA5 (Homo sapiens, UniProt P54756)", "remaining activity [%]": 102}
{"target": "CSNK2A1 (Homo sapiens, UniProt P68400)", "remaining activity [%]": 81.8}
{"target": "MAP4K2 (Homo sapiens, UniProt Q12851)", "remaining activity [%]": 44}
{"target": "PLK2 (Homo sapiens, UniProt Q9NYY3)", "remaining activity [%]": 100}
{"target": "IRAK4 (Homo sapiens, UniProt Q9NWZ3)", "remaining activity [%]": 94.1}
{"target": "PRKG1 (Homo sapiens, UniProt Q13976)", "remaining activity [%]": 82.7}
{"target": "CSNK1A1 (Homo sapiens, UniProt P48729)", "remaining activity [%]": 68.5}
{"target": "MAPK12 (Homo sapiens, UniProt P53778)", "remaining activity [%]": 85.2}
{"data": "Block 2", "cell line": "mouse MPNST tumor cells", "technique": "high-content nuclear imaging", "item": "cell number", "concentration": "10 µM", "time": "12 h", "setting": "mean of 2 replicates", "reference": "plate mean", "direction": "higher = more cells"}
{"Compound": "Clc1ccc(CO/N=C(\\Cn2ccnc2)c2ccc(Cl)cc2Cl)c(Cl)c1", "nuclei count": "0.624 z-score"}
{"Compound": "O=C(O)CCCCN(CCc1ccccc1OCc1ccc(CCc2ccccc2)cc1)Cc1ccc(C(=O)O)cc1", "nuclei count": "0.836 z-score"}
{"Compound": "O=C(Nc1ccncc1)c1cc([N+](=O)[O-])ccc1Cl", "nuclei count": "-2.6 z-score"}
{"Compound": "Cc1ccc(N2CCN(CCC3NC(=O)c4ccccc43)CC2)cc1C (stereo not drawn)", "nuclei count": "2.52 z-score"}
{"Compound": "COC(=O)[C@@H]1[C@H]2C[C@H]3c4[nH]c5ccccc5c4CCN3C[C@@H]2CC[C@@H]1O", "nuclei count": "0.755 z-score"}
{"Compound": "CC(=O)c1cc([N+](=O)[O-])c(Sc2ccc(F)cc2F)s1", "nuclei count": "-0.475 z-score"}
{"Compound": "Cc1c(NC(=O)OC[C@@H]2COCCN2)cn2ncnc(Nc3ccc4c(cnn4Cc4cccc(F)c4)c3)c12", "nuclei count": "-0.398 z-score"}
{"Compound": "CC(=O)OCC(=O)[C@@]12OC(C)(C)O[C@@H]1C[C@H]1[C@@H]3C[C@H](F)C4=CC(=O)C=C[C@]4(C)[C@@]3(F)[C@@H](O)C[C@@]12C", "nuclei count": "4.29 z-score"}
{"Compound": "C[C@]12CCC(=O)C=C1C=C[C@@H]1[C@@H]2CC[C@@]2(C)[C@H]1CC[C@@]21CCC(=O)O1", "nuclei count": "1.17 z-score and 3.38 z-score"}
{"Compound": "N=C(N)N/N=C/c1c(Cl)cccc1Cl", "nuclei count": "-0.948 z-score"}
{"data": "Block 3", "SMILES": "CNCc1ccccc1-c1csc([C@H](C)Nc2nc(C)nc3cc(OC)c(OC)cc23)c1", "effect on": "cell-free assay", "technique": "competition with immobilised ligand", "concentration": "1 µM"}
{"target": "CDKL2 (Homo sapiens, UniProt Q92772)", "remaining binding": "100%"}
{"target": "SNRK (Homo sapiens, UniProt Q9NRH2)", "remaining binding": "93%"}
{"target": "CHUK (Homo sapiens, UniProt O15111)", "remaining binding": "90%"}
{"target": "DDR2 (Homo sapiens, UniProt Q16832)", "remaining binding": "94%"}
{"target": "MAP3K9 (Homo sapiens, UniProt P80192)", "remaining binding": "100%"}
{"target": "EGFR (Homo sapiens, UniProt P00533, L861Q)", "remaining binding": "97%"}
{"target": "EGFR (Homo sapiens, UniProt P00533, T790M)", "remaining binding": "76%"}
{"target": "TAOK3 (Homo sapiens, UniProt Q9H2K8)", "remaining binding": "75%"}
{"target": "RPS6KB1 (Homo sapiens, UniProt P23443)", "remaining binding": "83%"}
{"target": "STK26 (Homo sapiens, UniProt Q9P289)", "remaining binding": "97%"}
{"target": "Ribosomal protein S6 kinase alpha-5, N-terminal kinase domain (RPS6KA5, Homo sapiens, UniProt O75582)", "remaining binding": "100%"}
{"target": "MAP3K2 (Homo sapiens, UniProt Q9Y2U5)", "remaining binding": "100%"}
{"target": "CDK7 (Homo sapiens, UniProt P50613)", "remaining binding": "61%"}
{"target": "PIK3CA (Homo sapiens, UniProt P42336, Q546K)", "remaining binding": "84%"}
{"target": "AKT3 (Homo sapiens, UniProt Q9Y243)", "remaining binding": "95%"}
{"target": "CHEK2 (Homo sapiens, UniProt O96017)", "remaining binding": "87%"}
{"target": "MAP2K5 (Homo sapiens, UniProt Q13163)", "remaining binding": "87%"}
{"data": "Block 4", "species": "mouse", "matrix": "microsomes or S9", "concentration": "2 µM", "time": "0.5 h"}
{"SMILES": "Cc1sc(Br)nc1-c1ccc(NS(C)(=O)=O)c(Cl)c1", "remaining compound [%]": 0.0644}
{"SMILES": "COC(=O)CCN1C(=O)c2ccncc2/C1=C\\c1ccccc1", "remaining compound [%]": 0.0278}
{"SMILES": "CCn1nc(C)c(S(=O)(=O)N(C)Cc2nn(C)c(Cl)c2Cl)c1C", "remaining compound [%]": 51.9}
{"SMILES": "CCOC(=O)Cc1cc(=O)n2nc(Cc3ccccc3)c(-c3ccccc3)c2[nH]1", "remaining compound [%]": "< 1"}
{"SMILES": "COCCN(CC(=O)N1N=C(c2ccccc2F)CC1c1cccs1)C(=O)CC(C)(C)C (stereo not drawn)", "remaining compound [%]": 1.48}
{"note": "Some of these lines once more (block 2):"}
{"Compound": "Cc1c(NC(=O)OC[C@@H]2COCCN2)cn2ncnc(Nc3ccc4c(cnn4Cc4cccc(F)c4)c3)c12", "nuclei count": "-0.398 z-score"}
{"Compound": "O=C(O)CCCCN(CCc1ccccc1OCc1ccc(CCc2ccccc2)cc1)Cc1ccc(C(=O)O)cc1", "nuclei count": "0.836 z-score"}
{"Compound": "COC(=O)[C@@H]1[C@H]2C[C@H]3c4[nH]c5ccccc5c4CCN3C[C@@H]2CC[C@@H]1O", "nuclei count": "0.755 z-score"}
